Measurements from different studies.
Each numbered part is a random draw from the data of one study; scales do not carry over between parts. Several values in a cell are separate wells, animals, samples, runs or records.
Chain of UniProt P29376 (whole entry, looked up): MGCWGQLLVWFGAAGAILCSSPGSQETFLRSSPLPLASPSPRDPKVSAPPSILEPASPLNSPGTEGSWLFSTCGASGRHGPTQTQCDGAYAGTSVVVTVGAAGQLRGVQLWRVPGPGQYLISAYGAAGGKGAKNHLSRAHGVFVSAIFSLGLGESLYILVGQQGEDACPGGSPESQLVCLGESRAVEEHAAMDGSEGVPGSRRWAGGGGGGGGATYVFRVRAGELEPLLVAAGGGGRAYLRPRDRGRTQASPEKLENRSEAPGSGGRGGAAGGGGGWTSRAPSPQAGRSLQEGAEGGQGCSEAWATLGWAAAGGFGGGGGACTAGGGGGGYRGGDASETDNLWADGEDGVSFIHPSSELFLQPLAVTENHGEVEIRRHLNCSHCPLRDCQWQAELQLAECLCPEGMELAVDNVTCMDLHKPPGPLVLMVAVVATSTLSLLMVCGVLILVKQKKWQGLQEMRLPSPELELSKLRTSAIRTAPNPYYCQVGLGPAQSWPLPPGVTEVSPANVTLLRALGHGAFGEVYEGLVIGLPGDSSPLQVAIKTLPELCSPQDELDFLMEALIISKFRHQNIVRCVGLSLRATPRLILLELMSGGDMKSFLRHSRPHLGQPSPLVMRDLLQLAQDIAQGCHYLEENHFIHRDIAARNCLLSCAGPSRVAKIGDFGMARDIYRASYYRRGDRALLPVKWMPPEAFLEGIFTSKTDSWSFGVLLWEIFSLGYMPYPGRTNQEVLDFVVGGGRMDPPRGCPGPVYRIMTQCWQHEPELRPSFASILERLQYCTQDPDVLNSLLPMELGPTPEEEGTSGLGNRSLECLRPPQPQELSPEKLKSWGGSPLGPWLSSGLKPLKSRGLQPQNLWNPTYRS
Chain of UniProt Q15375 (whole entry, looked up): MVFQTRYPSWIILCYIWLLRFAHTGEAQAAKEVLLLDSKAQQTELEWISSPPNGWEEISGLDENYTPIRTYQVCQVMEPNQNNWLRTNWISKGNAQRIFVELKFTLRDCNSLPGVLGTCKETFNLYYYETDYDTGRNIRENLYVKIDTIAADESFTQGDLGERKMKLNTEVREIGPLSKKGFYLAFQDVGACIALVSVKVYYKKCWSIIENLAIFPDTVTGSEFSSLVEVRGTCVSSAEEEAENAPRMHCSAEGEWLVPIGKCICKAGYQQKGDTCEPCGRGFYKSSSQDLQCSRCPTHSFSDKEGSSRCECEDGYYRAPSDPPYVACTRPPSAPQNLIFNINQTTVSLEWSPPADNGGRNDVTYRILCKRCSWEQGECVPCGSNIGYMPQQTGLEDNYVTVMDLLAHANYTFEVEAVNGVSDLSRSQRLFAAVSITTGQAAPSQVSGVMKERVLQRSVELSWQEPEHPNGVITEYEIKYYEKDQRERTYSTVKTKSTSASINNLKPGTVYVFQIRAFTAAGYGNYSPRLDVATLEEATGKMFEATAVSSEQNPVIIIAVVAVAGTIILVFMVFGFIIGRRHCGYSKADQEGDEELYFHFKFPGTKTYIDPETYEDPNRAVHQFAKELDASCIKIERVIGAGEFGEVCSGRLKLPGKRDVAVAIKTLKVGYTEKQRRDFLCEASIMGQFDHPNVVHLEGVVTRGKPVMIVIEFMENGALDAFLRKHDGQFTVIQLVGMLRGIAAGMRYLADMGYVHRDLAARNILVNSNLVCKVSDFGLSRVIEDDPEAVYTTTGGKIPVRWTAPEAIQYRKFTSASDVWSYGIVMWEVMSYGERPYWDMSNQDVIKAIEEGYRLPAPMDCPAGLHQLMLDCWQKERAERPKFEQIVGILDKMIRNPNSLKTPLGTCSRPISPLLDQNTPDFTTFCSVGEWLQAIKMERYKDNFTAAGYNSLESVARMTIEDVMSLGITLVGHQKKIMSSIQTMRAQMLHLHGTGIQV
Chain of UniProt P08684 (whole entry, looked up): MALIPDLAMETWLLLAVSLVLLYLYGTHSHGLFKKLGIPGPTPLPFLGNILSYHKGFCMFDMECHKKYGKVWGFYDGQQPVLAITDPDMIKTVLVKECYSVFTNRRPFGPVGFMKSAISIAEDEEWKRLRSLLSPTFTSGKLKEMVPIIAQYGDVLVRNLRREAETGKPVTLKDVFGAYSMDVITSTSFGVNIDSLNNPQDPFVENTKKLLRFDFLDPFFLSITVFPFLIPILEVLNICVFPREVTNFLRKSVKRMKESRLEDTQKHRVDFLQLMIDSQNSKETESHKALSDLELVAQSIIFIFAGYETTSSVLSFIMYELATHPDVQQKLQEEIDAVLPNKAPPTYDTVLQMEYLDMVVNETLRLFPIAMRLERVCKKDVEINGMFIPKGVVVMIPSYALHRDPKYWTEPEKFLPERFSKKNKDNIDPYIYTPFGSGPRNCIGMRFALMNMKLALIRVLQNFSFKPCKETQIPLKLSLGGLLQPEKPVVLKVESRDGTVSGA

Study 1 — method: von Frey test
SMILES: COc1cc(C(=O)OCCCN2CCCN(CCCOC(=O)c3cc(OC)c(OC)c(OCc4ccc([N+](=O)[O-])cc4)c3)CC2)cc(OC)c1OC
For mouse, CFA inflammatory pain; subcutaneous, 10 mg/kg, 24 h post-dose, third injection, day 5: “paw withdrawal threshold” read 0.32 g and 0.23 g and 0.4 g.
mouse, CFA inflammatory pain; intravenous, dose not given, 5 h post-dose, third injection, day 5 — “paw withdrawal threshold”: 0.51 g and 0.75 g and 0.98 g and 0.44 g and 0.65 g.
It gave 0.98 g and 0.51 g and 0.27 g and 0.36 g for “paw withdrawal threshold” (mechanical pain; mouse, STZ diabetic neuropathy; intravenous, 30 mg/kg, 1 h post-dose, first injection, day 8).
The “paw withdrawal threshold” was 0.29 g and 0.23 g and 0.4 g (mouse, CFA inflammatory pain; subcutaneous, 10 mg/kg, 1 h post-dose, third injection, day 5).
mechanical pain; mouse, STZ diabetic neuropathy; intravenous, 30 mg/kg, 3 h post-dose, first injection, day 8 — “paw withdrawal threshold”: 0.03 g and 0.2 g and 0.4 g and 0.51 g and 0.23 g.
The “paw withdrawal threshold” was 0.98 g and 0.65 g and 0.75 g and 1.3 g (mouse, CFA inflammatory pain; intravenous, dose not given, 3 h post-dose, third injection, day 5).
It gave 0.98 g and 1.3 g and 2.23 g for “paw withdrawal threshold” (mouse, CFA inflammatory pain; intraplantar, 10 µg, 1 h post-dose, day 3 after CFA).
mouse, CFA inflammatory pain; subcutaneous, 10 mg/kg, 5 h post-dose, third injection, day 5 — “paw withdrawal threshold”: 0.23 g and 0.51 g and 0.65 g and 0.44 g and 0.4 g.

Study 2 — mode: inhibitor
Structure (SMILES): Cn1cc(-c2cccc(CN3CCC4(CC3)COc3c4ccc4c3CN([C@H]3CCC(=O)NC3=O)C4=O)c2)cn1
KCNH2: Voltage-gated inwardly rectifying potassium channel KCNH2 (KCNH2, Homo sapiens, UniProt Q12809)
Chain of UniProt Q12809 (whole entry, looked up): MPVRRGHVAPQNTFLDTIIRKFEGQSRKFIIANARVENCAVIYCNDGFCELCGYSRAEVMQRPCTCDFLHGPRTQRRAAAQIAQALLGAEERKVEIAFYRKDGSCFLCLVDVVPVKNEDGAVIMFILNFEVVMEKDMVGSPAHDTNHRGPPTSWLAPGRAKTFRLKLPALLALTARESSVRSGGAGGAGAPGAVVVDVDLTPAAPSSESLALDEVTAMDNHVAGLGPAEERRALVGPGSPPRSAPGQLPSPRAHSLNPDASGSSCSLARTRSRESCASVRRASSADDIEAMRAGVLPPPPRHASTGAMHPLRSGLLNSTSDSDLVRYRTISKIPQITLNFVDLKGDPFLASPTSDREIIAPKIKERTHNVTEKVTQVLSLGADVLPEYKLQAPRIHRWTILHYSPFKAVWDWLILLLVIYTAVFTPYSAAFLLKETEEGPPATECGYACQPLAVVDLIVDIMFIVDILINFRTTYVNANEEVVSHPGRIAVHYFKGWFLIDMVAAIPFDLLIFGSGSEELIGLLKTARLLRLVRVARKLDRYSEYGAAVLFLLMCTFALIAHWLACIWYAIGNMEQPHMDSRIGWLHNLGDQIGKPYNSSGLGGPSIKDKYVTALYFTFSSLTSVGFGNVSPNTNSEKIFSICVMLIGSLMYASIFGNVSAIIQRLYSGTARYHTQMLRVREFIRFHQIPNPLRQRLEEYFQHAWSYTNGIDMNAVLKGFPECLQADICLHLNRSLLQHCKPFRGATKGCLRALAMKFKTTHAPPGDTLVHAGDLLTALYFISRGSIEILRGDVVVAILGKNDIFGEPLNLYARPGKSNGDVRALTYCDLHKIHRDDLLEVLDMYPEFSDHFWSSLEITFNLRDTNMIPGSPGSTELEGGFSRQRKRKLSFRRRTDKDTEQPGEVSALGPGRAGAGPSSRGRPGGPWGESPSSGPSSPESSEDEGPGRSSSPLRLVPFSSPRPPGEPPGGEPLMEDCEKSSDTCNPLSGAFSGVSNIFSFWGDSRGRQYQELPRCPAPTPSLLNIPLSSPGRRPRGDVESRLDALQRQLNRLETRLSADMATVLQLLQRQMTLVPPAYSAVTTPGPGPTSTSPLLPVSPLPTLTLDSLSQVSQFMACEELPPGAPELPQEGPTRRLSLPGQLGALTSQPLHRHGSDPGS
KCNH2; potassium current, manual patch clamp; measured concentrations — IC50: 47.5 µM.
Cytochrome P450 3A4 (CYP3A4, Homo sapiens, UniProt P08684); added: testosterone — IC50: over 10 µM.
KCNH2; potassium current, manual patch clamp; nominal concentrations — IC50: 30.8 µM.

Study 3 — organism: Arabidopsis thaliana; strain: Col-0; tested at: 3.125 µg/mL; setting: seed germination, single repetition
With CCCN1C(=O)C(O)(C(=O)O)Oc2cc(F)ccc21 (stereo not drawn) the hypocotyl length was 2.3 cm and 2.43 cm and 2.31 cm and 2.21 cm.
The hypocotyl length of Cc1ccc2c(c1)OC(O)(C(=O)O)C(=O)N2Cc1ccccc1 (stereo not drawn) is reported as 2.06 cm and 2.08 cm and 2.1 cm and 2.07 cm.
O=C(O)C1(O)Oc2cc(F)ccc2N(Cc2ccccc2)C1=O (stereo not drawn) has a hypocotyl length of 1.82 cm and 1.96 cm and 1.81 cm and 1.98 cm.
For CC(C)(C)c1ccc(Oc2ccc3c(c2)OC(O)(C(=O)O)C(=O)N3Cc2ccccc2)cc1 (stereo not drawn), the hypocotyl length was 2.35 cm and 2.31 cm and 2.28 cm and 2.29 cm.
The hypocotyl length of CC(C)=CCN1C(=O)C(O)(C(=O)O)Oc2cc(F)ccc21 (stereo not drawn) is reported as 2.12 cm and 2.1 cm and 2.11 cm.

Other studies, line by line — tested at: 1 µM
The receptor occupancy of COc1cc(-c2nc3ccc(C(=O)NCCCN(C)C)cc3n2C2CCC2)cc(OC)c1OC is reported as -4.55% (LTK (Homo sapiens, UniProt P29376); NanoBRET).
For COc1cc(-c2nc3ccc(C(=O)NCCCN4CCN(c5cccc(C)c5C)CC4)cc3n2C2CCC2)cc(OC)c1OC, the remaining binding was 100% (EPHA7 (Homo sapiens, UniProt Q15375); binding, competition with immobilised ligand).

A few entries again (study 1):
It gave 0.98 g and 1.3 g and 2.23 g for “paw withdrawal threshold” (mouse, CFA inflammatory pain; intraplantar, 10 µg, 1 h post-dose, day 3 after CFA).
mouse, CFA inflammatory pain; subcutaneous, 10 mg/kg, 5 h post-dose, third injection, day 5 — “paw withdrawal threshold”: 0.23 g and 0.51 g and 0.65 g and 0.44 g and 0.4 g.
